Experimental data of several laboratories.
Protocols differ between the studies behind these lines. “And” joins repeats or separate records; there may be more than shown. Numbers after ± are the reported error.
Sequence of UniProt Q9NX63 (whole entry, looked up): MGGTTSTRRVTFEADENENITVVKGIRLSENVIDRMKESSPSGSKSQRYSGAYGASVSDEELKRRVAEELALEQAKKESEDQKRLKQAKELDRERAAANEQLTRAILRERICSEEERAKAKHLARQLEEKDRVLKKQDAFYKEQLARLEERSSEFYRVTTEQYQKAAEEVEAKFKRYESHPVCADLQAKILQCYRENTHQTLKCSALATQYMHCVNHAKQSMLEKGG
Sequence of UniProt Q8WU67 (whole entry, looked up): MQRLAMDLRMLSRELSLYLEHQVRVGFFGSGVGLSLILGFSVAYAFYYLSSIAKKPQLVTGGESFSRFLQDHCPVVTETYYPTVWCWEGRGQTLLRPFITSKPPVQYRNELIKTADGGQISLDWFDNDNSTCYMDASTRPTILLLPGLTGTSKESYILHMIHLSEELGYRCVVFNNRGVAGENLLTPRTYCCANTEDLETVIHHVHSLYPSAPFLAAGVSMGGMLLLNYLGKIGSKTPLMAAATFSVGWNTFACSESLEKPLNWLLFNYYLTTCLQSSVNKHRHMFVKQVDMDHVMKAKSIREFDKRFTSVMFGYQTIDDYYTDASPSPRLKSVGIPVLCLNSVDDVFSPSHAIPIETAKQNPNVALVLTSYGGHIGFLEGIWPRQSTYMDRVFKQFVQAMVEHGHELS

SMILES = COc1cc(Nc2ncc(F)c(Nc3ccc4c(n3)NC(=O)C(C)(C)O4)n2)cc(OC)c1OC; tested on = Caspase-7 (CASP7, Homo sapiens, UniProt P55210); measurement = IC50; result = > 10 µM
SMILES = C[C@H]1O[C@@H](O[C@H]2CC[C@@]3(C)[C@@H](CC[C@]4(C)[C@@H]3C=C[C@]35OC[C@@]6(CCC(C)(C)C[C@H]63)[C@@H](O)C[C@]54C)[C@]2(C)CO)[C@H](O)[C@@H](O[C@@H]2O[C@H](CO)[C@@H](O)[C@H](O)[C@H]2O)[C@H]1O; assay = item: SCD-1; system = chronic-plus-binge ethanol-fed mice, AAV8-TBG-Null, liver; setting = dose not given, high dose, unit not given; scale = baseline: AAV8-TBG-Null ethanol group; measurement = mRNA level; result = 0.16 and 0.191 and 0.168 and 0.1
SMILES = C/C=C1\NC(=O)C(C(C)O)NC(=O)C(CCCN)NC(=O)C(CCO)NC(=O)C(CCN)NC(=O)C(CCN)NC(=O)C(NC(=O)CC(O)CCCCCCCCCCC)COC(=O)C(C(O)CCl)NC(=O)C(C(O)C(=O)O)NC1=O (stereo not shown); assay = calcein leakage; system = DOPC/DOPG/CHOL liposomes; setting = concentration not given, with: 40 mM CaCl2; measurement = fusion time constant; result = 52 ± 33 min
SMILES = COc1ccc(CCC2CCCC(CCc3ccc(OC)cc3)N2C[C@@H](O)CO)cc1.Cl (stereo in doubt); system = rat striatal slices; setting = concentration not given, basal, no methamphetamine; measurement = dopamine release; result = no effect
SMILES = O=c1cc(-c2ccccc2)oc2cc(O)c(O)c(O)c12; system = rat plasma 10%; setting = 100 µg/mL, with: OS 1 µg/mL; measurement = inhibition of OS hydrolysis; result = > 50%
SMILES = COc1cc2c(Oc3ccc4[nH]c(C)cc4c3F)ccnc2cc1OCC1(N)CC1; system = paediatric recurrent refractory sarcoma; setting = 8 mg; measurement = grade 3 Triglyceride elevation; result = 0%
SMILES = Cc1cn([C@H]2O[C@@H](CO[P@@](=O)(N[C@@H](C)C(=O)OC(C)C)Oc3ccccc3)[C@H](O)[C@H]2F)c(=O)[nH]c1=O; system = adults with chronic hepatitis B; setting = 50 mg, day 28; scale = baseline: baseline; measurement = change in HBV DNA; result = 2.75 log10 IU/mL
SMILES = CC[C@H](C)[C@H](NC(=O)[C@H](CCC(=O)O)NC(=O)[C@H](CCCNC(=N)N)NC(=O)[C@H](CCCNC(=N)N)NC(=O)[C@H](CCCNC(=N)N)NC(=O)[C@H](CCC(N)=O)NC(=O)[C@H](CCCNC(=N)N)NC(=O)[C@H](CCCNC(=N)N)NC(=O)[C@H](CCCCN)NC(=O)[C@H](CCCCN)NC(=O)[C@H](CCCNC(=N)N)NC(=O)CNC(=O)[C@H](Cc1ccc(O)cc1)NC(C)=O)C(=O)N[C@@H](CC(=O)O)C(=O)N[C@@H](Cc1c[nH]cn1)C(=O)N[C@@H](CC(=O)O)C(N)=O; assay = electron microscopy; system = db/db mouse, hippocampal CA1; setting = intravenous, dose not given, weekly; measurement = postsynaptic density thickness; result = decreased
SMILES = O=C(O)/C=C/C(=O)O.Oc1cccc2[nH]cc(CCNCc3ccccc3)c12; system = C57BL/6J mice; setting = subcutaneous, 30 mg/kg; scale = baseline: pre-session baseline; measurement = body temperature change; result = -2.2 ± 0.5 °C
SMILES = C[C@@H](O)[C@@H](CO)NC(=O)[C@@H](CCCNC(=N)N)NC(=O)[C@@H]1CCCN1C(=O)[C@@H]1CSSC[C@H](NC(=O)[C@H](Cc2ccccc2)NC(=O)CN2CCN(CC(=O)O)CCN(CC(=O)O)CCN(CC(=O)O)CC2)C(=O)N[C@@H](Cc2ccc(O)cc2)C(=O)N[C@@H](Cc2ccccc2)C(=O)N[C@@H](CCC(N)=O)C(=O)N[C@@H](CC(N)=O)C(=O)N1 [gallium-68 labelled]; system = healthy Wistar rat, kidneys; setting = intravenous, 8 MBq, 120 min, individual animals; measurement = tissue uptake; result = 1.73 %ID/g
SMILES = O=C(c1ccc(Cl)cc1)N1CCN2C(=O)N(OC(=O)N3CCOc4ccccc43)C(=O)C2C1 (stereo not shown); tested on = ABHD3 (Homo sapiens, UniProt Q8WU67); assay = enzyme activity, inhibitor, MS-based ABPP; system = SW-620 in situ; setting = 10 µM, 2 h, 37 °C; scale = baseline: compound over DMSO, lower = stronger inhibition; measurement = median ratio; result = 1.09
SMILES = COc1cc(CCC[P+](c2ccccc2)(c2ccccc2)c2ccccc2)c(OC)c2c1OCO2.[I-]; tested on = Malme-3M; assay = SRB; measurement = TGI; result = -5.16 log M
SMILES = N#CN=C(NCCCc1c[nH]cn1)NCC1CC1; assay = antinociception, hot plate test; system = rat; setting = intracerebroventricular, 5 min; measurement = ED50; result = 86.6 nmol
SMILES = C[C@]1(CO)Cc2ncn(-c3ccc(C#N)c(Cl)c3)c2C(=O)O1; system = Japanese subjects; setting = 3 mg single dose; measurement = urinary potassium excretion 0-24 h; result = 32.6 mmol
SMILES = C[C@H]1CN(c2n[nH]c3nc(N[C@H]4CC[C@H](NS(=O)(=O)CCC(F)(F)F)CC4)ncc23)CCO1; tested on = MICOS complex subunit MIC19 (Homo sapiens, UniProt Q9NX63); assay = Kinobeads competition, item: CHCHD3; setting = 0.8 µM, unit not given; scale = baseline: vehicle; measurement = remaining binding; result = 1.11
SMILES = Nc1ncnc2c1ncn2[C@@H]1O[C@@H]2COP(=O)(O)O[C@H]3[C@@H](O)[C@H](n4cnc5c(=O)[nH]cnc54)O[C@@H]3COP(=O)(O)O[C@H]2[C@H]1O; tested on = Zika virus; assay = downregulated Reactome pathway, RNA sequencing, item: Syndecan interactions (R-HSA-3000170); system = HFF-1; scale = baseline: ZIKV-infected untreated; measurement = fold enrichment; result = 13.2
SMILES = CC(=O)c1c(C)c2cnc(Nc3ccc(C4CCN(CCS(C)(=O)=O)CC4)cn3)nc2n(C2CCCC2)c1=O; system = mouse MDA-MB-435S xenograft, tumour; setting = oral, 100 mg/kg single dose; measurement = time to peak pRb inhibition; result = 30 min
SMILES = C=CC(=O)N[C@H]1C=C(C)c2c(-c3cnc4ccccc4c3)c3c(N)ncnc3n2C1; system = mice, NCI-H2073 vs LXF 2478 xenografts; setting = highest clinically relevant dose, unit not given; scale = baseline: NCI-H2073 minus LXF 2478; measurement = growth rate difference; result = 0.0127
SMILES = CCCCC1(CCCC)CN(c2ccccc2)c2cc(SC)c(OCC(=O)N[C@@H](C(=O)NCC(=O)O)c3ccccc3)cc2S(=O)(=O)C1; assay = item: LDL cholesterol; system = human, serum; setting = 5 mg once daily, day 11; measurement = serum LDL-C; result = 91.2 mg/dL
SMILES = CN1CCN(S(=O)(=O)c2cc([N+](=O)[O-])ccc2N(CCOS(C)(=O)=O)CCOS(C)(=O)=O)CC1; system = NSG mice, T-ALL PDX sample E; setting = intraperitoneal, 25 mg/kg, single mouse trial; measurement = T-C; result = > 264 days
SMILES = CC[C@H](C)[C@@H]1NC(=O)[C@@H]2CCCN2C(=O)[C@H](CC(C)C)NC(=O)[C@H](CC(C)C)NC(=O)CNC(=O)[C@@H](NC(=O)[C@@H](NC(=O)[C@H](CC(=O)O)NC(=O)CNC(=O)[C@@H](NC(=O)[C@H](C)NC(=O)CNC(=O)[C@H](CCCCN)NC(=O)[C@H](CC(C)C)NC(=O)[C@H](CC(C)C)NC(=O)[C@H](CCCCN)NC(=O)CNC(=O)[C@@H](NC(=O)[C@@H](N)CC(C)C)C(C)C)C(C)C)C(C)C)CSSC[C@@H](C(=O)O)NC1=O; assay = RNA-seq, item: Cd2; system = mouse, traumatic brain injury model, frontal cortex and hippocampus; setting = dose not given; scale = baseline: TBI alone; measurement = log2 fold change; result = -5.21
SMILES = CCCCCCCCCC(=O)N[C@@H](Cc1c[nH]c2ccccc12)C(=O)N[C@H](CC(N)=O)C(=O)N[C@@H](CC(=O)O)C(=O)N[C@@H]1C(=O)NCC(=O)N[C@@H](CCCN)C(=O)N[C@@H](CC(=O)O)C(=O)N[C@H](C)C(=O)N[C@@H](CC(=O)O)C(=O)NCC(=O)N[C@H](CO)C(=O)N[C@@H]([C@H](C)CC(=O)O)C(=O)N[C@@H](CC(=O)c2ccccc2N)C(=O)O[C@@H]1C; assay = calcein leakage; system = DOPC/CHOL liposomes; setting = concentration not given, with: 20 wt% PEG-8000; measurement = fusion time constant; result = 11 ± 3 min
SMILES = COc1c(CCC[P+](c2ccccc2)(c2ccccc2)c2ccccc2)cc2c(c1OC)OCO2.[I-]; tested on = KM12; assay = SRB; measurement = TGI; result = -5.13 log M
SMILES = CC[C@H](C)[C@H](NC(=O)[C@H](Cc1ccccc1)NC(=O)[C@H](CCC(=O)O)NC(=O)[C@H](CCCNC(=N)N)NC(=O)[C@H](C)NC(=O)[C@H](C)NC(=O)[C@H](CCC(N)=O)NC(=O)[C@H](CCC(=O)O)NC(=O)[C@H](CCC(=O)O)NC(=O)[C@H](CC(C)C)NC(=O)[C@H](Cc1ccc(O)cc1)NC(=O)[C@H](CO)NC(=O)[C@H](CO)NC(=O)[C@@H](NC(=O)[C@H](CC(=O)O)NC(=O)[C@H](CO)NC(=O)[C@@H](NC(=O)[C@H](Cc1ccccc1)NC(=O)[C@@H](NC(=O)CNC(=O)[C@H](CCC(=O)O)NC(=O)[C@H](C)NC(=O)CCc1c[nH]cn1)[C@@H](C)O)[C@@H](C)O)C(C)C)C(=O)N[C@@H](C)C(=O)N[C@@H](Cc1c[nH]c2ccccc12)C(=O)N[C@@H](CC(C)C)C(=O)N[C@H](C(=O)N[C@@H](CCCNC(=N)N)C(=O)NCC(=O)N[C@@H](CCCNC(=N)N)C(=O)N[C@@H](CCCCNC(=O)COCCOCCNC(=O)COCCOCCNC(=O)CC[C@H](NC(=O)CCCCCCCCCCCCCCCCC(=O)O)C(=O)O)C(=O)NCC(=O)NCC(=O)N[C@@H](CO)C(=O)N[C@@H](CCCCNc1c(NCCCCCN(O)C(=O)CCC(=O)NCCCCCN(O)C(=O)CCC(=O)NCCCCCN(O)C(C)=O)c(=O)c1=O)C(=O)O)C(C)C [zirconium-89 labelled]; system = rat, pancreas; setting = sc, 3 nmol/kg, 24 h, ex vivo; measurement = tissue uptake; result = 0.16 %ID/g
SMILES = CCCCCCCCCCCCCCCC(=O)N[C@H]1C[C@@H](O)[C@@H](O)NC(=O)[C@@H]2[C@@H](O)[C@@H](C)CN2C(=O)[C@H]([C@@H](C)O)NC(=O)[C@H]([C@H](O)[C@@H](O)c2ccc(O)cc2)NC(=O)[C@@H]2C[C@@H](O)CN2C(=O)[C@H]([C@@H](C)O)NC1=O; assay = calcein leakage; system = DOPC/DOPG/CHOL liposomes; setting = concentration not given, with: 40 mM CaCl2; measurement = fusion time constant; result = 1 ± 1 min
SMILES = C=CC(=O)Nc1cc(Nc2ncc(Cl)c(Nc3ccccc3C(=O)C(=O)N(C)C)n2)c(OC)cc1N1CCN(C)CC1; assay = RECIST v1.1 best response; system = human EGFR T790M NSCLC; setting = oral, 25 mg/day, per-protocol set; measurement = patients with stable disease; result = 0%
SMILES = Cc1nc(Nc2ccc(CC(=O)O)cc2)nc(Nc2ccc(F)c(C(F)(F)F)c2)c1C; system = C57BL/6J mouse, high-fat diet MASH model; setting = intraperitoneal, 0.3 mg/kg daily, 60% fat diet for 12 weeks, dosed final four weeks, with: glucose 2 g/kg ip; scale = baseline: untreated; measurement = glucose tolerance AUC; result = decreased
SMILES = Cc1cn(-c2cc(NC(=O)c3ccc(C)c(Nc4nccc(-c5cccnc5)n4)c3)cc(C(F)(F)F)c2)cn1; system = human patients; setting = dose not given, baseline, treated group; scale = direction not given; measurement = ADAS-Cog score; result = 27.9 ± 7.2

For quick reference, copied from above:
SMILES = CC[C@H](C)[C@H](NC(=O)[C@H](CCC(=O)O)NC(=O)[C@H](CCCNC(=N)N)NC(=O)[C@H](CCCNC(=N)N)NC(=O)[C@H](CCCNC(=N)N)NC(=O)[C@H](CCC(N)=O)NC(=O)[C@H](CCCNC(=N)N)NC(=O)[C@H](CCCNC(=N)N)NC(=O)[C@H](CCCCN)NC(=O)[C@H](CCCCN)NC(=O)[C@H](CCCNC(=N)N)NC(=O)CNC(=O)[C@H](Cc1ccc(O)cc1)NC(C)=O)C(=O)N[C@@H](CC(=O)O)C(=O)N[C@@H](Cc1c[nH]cn1)C(=O)N[C@@H](CC(=O)O)C(N)=O; assay = electron microscopy; system = db/db mouse, hippocampal CA1; setting = intravenous, dose not given, weekly; measurement = postsynaptic density thickness; result = decreased
